# Measured values gathered from unrelated publications.
# A part holds a random share of what one study measured.

# Set 1 — technique: protein binding microarray; form: double-stranded DNA, one strand shown; sample: in vitro; tested at: not given; relative to: not given; reading: higher = stronger binding
# Target: Histone acetyltransferase KAT6A, winged helix 1, GST fusion (KAT6A, Homo sapiens, UniProt Q92794, residues 1-85)
# Setting: 8-mer, flanks averaged, mean of 2 arrays, mostly near background
# Residues (chain): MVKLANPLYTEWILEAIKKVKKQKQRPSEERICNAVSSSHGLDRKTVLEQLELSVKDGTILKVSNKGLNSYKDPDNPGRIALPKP
Sequence,E-score
CGAGCGTA,0.175
AAACGTTA,-0.00818
AGACGGCC,0.376
ATATATTC,-0.092
CCGTCGAA,0.162
CCCCCGGG,0.345
AAACACAG,-0.281

# Set 2 — technique: competition protein-binding microarray; form: double-stranded DNA, one strand shown; sample: in vitro; tested at: 2 µM; with: Pho4 competitor, 0.05 µM; reading: higher = stronger binding; all sequences stand within: … GTCTTGATTCGCTTGACGCTGCTG
# Target: Centromere-binding protein 1, full length, His-tagged (CBF1, Saccharomyces cerevisiae, UniProt P17106, residues 1-351)
# Chain of UniProt P17106 (whole entry, looked up): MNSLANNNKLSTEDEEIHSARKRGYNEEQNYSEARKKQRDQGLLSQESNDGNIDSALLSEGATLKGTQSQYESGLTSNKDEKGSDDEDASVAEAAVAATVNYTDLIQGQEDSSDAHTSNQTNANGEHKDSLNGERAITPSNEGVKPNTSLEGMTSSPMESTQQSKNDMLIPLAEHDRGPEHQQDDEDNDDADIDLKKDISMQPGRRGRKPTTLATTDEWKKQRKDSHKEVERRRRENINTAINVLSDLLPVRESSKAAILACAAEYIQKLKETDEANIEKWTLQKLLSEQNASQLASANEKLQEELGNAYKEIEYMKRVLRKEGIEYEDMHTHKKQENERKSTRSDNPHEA
# Setting: whole 60-bp probe, lowest competitor level
Sequence,fluorescence intensity [a.u.]
GGCCTTGGTAATGGGAACGTGGCCGAAAACGGCGAG,64.5
CATACCCAACCTTGGAAGGTGGGTGAAGATATTTGT,75.6
CAGTTCATTTACTTCCACGTGTAGATGTGAAGGAAT,756
TGCTACTGCTGCTGTTGTGTGACAGGAAACGCGTTT,63.5
CGGGGTTAAGTTTGTCACCAAACTTGCTTGCAGCAG,72.6

# Set 3 — technique: universal PBM; form: double-stranded DNA, one strand shown; sample: in vitro; tested at: not given; reading: higher = stronger binding
# Target: Sal-like protein 4, full length isoform B (SALL4, Homo sapiens, UniProt Q9UJQ4-2, residues 1-616)
# Setting: 8-mer, flanks averaged, mean of replicates
Sequence,E-score
GGAACTAC,-0.134
GTCTCCAC,-0.269
AACGGTTC,-0.104
CACAAATG,0.23
CGTCCACA,-0.131

# Other studies, line by line
Molecule,target,test,test system,conditions,how to read,measurement,result
"PhoQ, residues 284 288 289 292 302 303 TNSAEL","PhoP, residues 12 14 15 18 19 NQAHL (Escherichia coli, UniProt P23836)","Sort-seq, item: YFP reporter",E. coli,"PhoQ-PhoP variant library, with: 10 µM Mg2+","relative to: high Mg2+ state, higher = stronger signaling",fold induction,1.08

# Excerpt of the above (set 1):
Sequence,E-score
CGAGCGTA,0.175
AAACGTTA,-0.00818
AGACGGCC,0.376
